# Earlier results that unrelated publications cite.
# Lines come from different studies, so protocols differ. Numbers after ± are the reported error.
# Organism: Trypanosoma cruzi
SMILES,system,setting,quantity,result
O=[N+]([O-])c1ccc(/C=N/N=C/c2ccc([N+](=O)[O-])o2)cc1,"CL, intracellular amastigotes",,IC50,0.78 ± 0.01 µM
O=C(Nc1cc2nc(-c3ccc(F)c(F)c3)cn2cn1)N1CC[C@H](F)C1,,,EC50,0.09 µM
O=C(/C=C/c1ccc(O)c(O)c1)N1CCN(Cc2ccccc2)CC1,"Y strain, trypomastigotes",,IC50,46.4 ± 0.9 µM
Cc1c(C(=O)N/N=C/c2c(-c3ccccc3)no[n+]2[O-])nc2ccccn12,amastigote,,IC50,56.2 µM
COC(=O)Cn1c2ccc([N+](=O)[O-])cc2c(=O)n1Cc1ccccc1,,"concentration not given, epimastigotes",antiparasitic activity,active
COc1cc(O)c(-c2ccc(OC)c3c(O)cc(C)c(-c4cc(-c5c(O)cc(OC)c6c5C[C@H](C)N(C)[C@@H]6C)c5cc(C)cc(OC)c5c4O)c23)c2c1[C@@H](C)N(C)[C@H](C)C2,Tulahuen C4,amastigotes,IC50,2.98 µM
O=C(c1ccc(O)c(O)c1)N1CCN(Cc2ccccc2)CC1,amastigotes,,IC50,28.2 ± 3.8 µM
COC(=O)CCn1c2ccc([N+](=O)[O-])cc2c(=O)n1Cc1ccccc1,,"concentration not given, epimastigotes",antiparasitic activity,active
